Measurements gathered from unrelated publications.
Protocols differ between the studies behind these lines.
Sequence of UniProt Q00534 (whole entry, looked up): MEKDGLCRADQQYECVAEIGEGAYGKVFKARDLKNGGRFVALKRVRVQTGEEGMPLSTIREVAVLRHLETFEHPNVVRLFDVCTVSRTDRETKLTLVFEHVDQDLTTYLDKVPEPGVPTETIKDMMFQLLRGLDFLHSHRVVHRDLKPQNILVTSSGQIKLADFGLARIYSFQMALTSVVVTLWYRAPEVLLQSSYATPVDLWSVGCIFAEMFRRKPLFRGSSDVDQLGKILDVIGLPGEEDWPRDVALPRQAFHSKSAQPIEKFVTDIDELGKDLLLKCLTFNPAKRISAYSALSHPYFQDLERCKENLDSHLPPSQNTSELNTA
Sequence of UniProt P22607 (whole entry, unmodified, looked up): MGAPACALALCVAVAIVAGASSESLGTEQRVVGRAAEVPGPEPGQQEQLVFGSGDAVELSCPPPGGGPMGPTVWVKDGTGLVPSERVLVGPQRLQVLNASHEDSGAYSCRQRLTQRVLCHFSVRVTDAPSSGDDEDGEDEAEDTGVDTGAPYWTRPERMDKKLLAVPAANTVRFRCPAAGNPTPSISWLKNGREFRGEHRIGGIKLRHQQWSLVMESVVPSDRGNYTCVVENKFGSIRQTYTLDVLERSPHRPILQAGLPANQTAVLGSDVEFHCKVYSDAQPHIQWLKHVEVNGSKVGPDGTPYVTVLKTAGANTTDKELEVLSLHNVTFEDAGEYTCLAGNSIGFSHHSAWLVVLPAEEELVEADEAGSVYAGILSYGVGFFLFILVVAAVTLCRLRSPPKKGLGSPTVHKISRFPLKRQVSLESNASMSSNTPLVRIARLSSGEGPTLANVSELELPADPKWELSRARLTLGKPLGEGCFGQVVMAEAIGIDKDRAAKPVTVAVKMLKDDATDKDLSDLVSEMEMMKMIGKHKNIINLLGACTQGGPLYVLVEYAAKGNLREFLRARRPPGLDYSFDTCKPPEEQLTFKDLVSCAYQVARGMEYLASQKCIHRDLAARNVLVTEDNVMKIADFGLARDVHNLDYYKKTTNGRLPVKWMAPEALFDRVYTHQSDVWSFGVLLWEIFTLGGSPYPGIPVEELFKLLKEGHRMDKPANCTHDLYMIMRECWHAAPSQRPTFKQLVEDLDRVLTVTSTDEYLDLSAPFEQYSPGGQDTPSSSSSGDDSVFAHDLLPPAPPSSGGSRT
Sequence of UniProt Q9ULW8 (whole entry, looked up): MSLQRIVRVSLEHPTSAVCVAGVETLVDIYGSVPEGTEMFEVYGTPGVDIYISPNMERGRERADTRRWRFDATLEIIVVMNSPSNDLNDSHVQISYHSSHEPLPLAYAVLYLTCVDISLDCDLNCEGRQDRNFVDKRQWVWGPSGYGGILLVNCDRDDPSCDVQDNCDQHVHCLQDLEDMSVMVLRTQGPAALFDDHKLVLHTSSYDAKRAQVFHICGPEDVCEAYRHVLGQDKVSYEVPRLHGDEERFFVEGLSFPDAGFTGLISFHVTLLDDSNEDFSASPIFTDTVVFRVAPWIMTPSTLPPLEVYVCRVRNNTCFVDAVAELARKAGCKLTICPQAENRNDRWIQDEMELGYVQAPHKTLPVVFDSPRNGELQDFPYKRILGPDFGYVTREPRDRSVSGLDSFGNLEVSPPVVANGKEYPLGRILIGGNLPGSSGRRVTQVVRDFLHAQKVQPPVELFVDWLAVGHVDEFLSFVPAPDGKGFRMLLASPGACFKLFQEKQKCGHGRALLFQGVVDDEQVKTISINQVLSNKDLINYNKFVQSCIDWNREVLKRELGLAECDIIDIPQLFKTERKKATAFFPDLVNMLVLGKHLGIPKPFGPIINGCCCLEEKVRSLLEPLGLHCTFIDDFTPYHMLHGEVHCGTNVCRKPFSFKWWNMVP
Sequence of UniProt P36507 (whole entry, looked up): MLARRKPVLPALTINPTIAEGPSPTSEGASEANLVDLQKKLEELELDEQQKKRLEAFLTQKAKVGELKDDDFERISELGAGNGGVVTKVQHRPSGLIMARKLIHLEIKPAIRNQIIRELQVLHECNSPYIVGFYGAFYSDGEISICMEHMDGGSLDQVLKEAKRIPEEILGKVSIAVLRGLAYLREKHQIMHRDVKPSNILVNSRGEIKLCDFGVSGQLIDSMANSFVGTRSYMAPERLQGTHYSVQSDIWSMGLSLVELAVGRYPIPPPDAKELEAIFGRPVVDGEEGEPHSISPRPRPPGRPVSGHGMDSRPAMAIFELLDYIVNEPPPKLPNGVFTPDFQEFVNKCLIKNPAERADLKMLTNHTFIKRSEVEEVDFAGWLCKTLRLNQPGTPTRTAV
Sequence of UniProt O60331 (whole entry, looked up): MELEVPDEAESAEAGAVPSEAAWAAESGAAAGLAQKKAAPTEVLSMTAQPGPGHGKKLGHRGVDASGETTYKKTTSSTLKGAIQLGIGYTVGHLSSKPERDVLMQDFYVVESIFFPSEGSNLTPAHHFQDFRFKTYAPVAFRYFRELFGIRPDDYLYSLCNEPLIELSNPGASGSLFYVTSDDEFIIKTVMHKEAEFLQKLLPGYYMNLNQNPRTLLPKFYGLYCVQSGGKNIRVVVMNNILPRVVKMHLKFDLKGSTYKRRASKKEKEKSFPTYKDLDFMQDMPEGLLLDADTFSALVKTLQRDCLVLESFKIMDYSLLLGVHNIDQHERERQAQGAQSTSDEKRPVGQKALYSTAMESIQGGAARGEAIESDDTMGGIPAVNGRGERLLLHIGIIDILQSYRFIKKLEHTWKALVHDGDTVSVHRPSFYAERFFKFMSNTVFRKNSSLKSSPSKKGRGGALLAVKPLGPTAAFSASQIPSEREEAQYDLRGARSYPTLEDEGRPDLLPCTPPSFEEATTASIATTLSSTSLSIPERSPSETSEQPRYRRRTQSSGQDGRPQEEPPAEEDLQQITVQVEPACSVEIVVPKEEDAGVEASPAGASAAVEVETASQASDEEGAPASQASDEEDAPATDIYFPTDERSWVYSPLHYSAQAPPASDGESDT
Sequence of UniProt O43318 (whole entry, looked up): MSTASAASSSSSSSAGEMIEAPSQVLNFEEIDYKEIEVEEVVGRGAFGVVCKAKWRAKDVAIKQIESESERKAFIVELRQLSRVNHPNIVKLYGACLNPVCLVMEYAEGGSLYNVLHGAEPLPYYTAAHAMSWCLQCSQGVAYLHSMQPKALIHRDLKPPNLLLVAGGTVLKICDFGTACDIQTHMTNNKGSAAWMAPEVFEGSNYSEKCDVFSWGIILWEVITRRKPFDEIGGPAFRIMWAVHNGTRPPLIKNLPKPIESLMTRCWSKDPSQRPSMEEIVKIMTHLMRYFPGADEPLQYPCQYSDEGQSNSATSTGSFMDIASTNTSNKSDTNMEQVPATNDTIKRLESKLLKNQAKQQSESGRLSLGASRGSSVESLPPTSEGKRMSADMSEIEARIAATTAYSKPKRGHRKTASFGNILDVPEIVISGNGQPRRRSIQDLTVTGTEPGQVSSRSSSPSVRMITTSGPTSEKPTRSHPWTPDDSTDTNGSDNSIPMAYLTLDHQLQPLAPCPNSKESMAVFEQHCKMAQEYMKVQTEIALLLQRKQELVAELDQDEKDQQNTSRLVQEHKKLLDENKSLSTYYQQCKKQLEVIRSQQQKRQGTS
Sequence of UniProt Q04912 (whole entry, looked up): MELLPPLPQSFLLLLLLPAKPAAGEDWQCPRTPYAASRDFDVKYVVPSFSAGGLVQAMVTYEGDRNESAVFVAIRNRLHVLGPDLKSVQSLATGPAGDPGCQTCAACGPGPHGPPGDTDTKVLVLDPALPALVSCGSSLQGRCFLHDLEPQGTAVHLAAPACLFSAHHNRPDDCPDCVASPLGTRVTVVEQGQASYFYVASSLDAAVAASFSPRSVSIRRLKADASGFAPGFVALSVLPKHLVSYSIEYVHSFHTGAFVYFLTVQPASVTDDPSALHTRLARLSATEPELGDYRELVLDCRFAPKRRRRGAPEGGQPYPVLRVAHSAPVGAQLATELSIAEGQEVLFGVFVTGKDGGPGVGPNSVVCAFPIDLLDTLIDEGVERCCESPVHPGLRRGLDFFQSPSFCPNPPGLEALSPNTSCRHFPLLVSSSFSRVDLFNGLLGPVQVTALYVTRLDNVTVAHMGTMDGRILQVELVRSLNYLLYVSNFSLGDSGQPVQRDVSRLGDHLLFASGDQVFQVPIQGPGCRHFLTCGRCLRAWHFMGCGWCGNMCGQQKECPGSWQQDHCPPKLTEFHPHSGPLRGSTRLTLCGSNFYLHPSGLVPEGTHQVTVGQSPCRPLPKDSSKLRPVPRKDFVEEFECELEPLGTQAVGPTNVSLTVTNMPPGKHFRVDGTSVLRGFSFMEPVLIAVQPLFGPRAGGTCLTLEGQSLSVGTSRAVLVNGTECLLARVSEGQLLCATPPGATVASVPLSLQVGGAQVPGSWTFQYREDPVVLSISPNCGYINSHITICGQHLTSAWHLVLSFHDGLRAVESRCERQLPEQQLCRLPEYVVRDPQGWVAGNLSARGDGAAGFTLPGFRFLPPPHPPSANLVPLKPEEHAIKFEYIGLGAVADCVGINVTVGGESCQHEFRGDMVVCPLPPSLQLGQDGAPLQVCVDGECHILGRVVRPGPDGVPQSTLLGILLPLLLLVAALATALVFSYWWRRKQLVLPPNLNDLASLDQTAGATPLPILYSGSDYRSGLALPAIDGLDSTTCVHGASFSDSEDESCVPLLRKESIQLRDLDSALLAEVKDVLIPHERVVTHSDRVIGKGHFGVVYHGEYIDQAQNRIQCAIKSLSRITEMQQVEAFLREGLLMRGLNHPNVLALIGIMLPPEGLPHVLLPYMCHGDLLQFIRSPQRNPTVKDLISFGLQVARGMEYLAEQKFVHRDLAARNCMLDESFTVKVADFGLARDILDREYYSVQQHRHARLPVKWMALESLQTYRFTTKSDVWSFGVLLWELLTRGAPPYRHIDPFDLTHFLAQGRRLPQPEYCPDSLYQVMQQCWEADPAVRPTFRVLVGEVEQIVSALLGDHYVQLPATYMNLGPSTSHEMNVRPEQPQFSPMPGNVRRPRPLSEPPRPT

| SMILES | target | read-out | action | method | concentration | added | inhibition [%] |
| --- | --- | --- | --- | --- | --- | --- | --- |
| O=C(O)c1ccccc1/C=N/Nc1nc(-c2ccccc2Cl)cs1 | Cyclin-dependent kinase 6, with cyclin D3 (CDK6, Homo sapiens, UniProt Q00534) | enzyme activity | inhibitor |  | 1 µM |  | -0.9 |
| N[C@H](C(=O)N1CCCC1)C1CCN(c2nccc3c(-c4ncc(Cl)cc4Cl)cccc23)CC1 | PADI3 (Homo sapiens, UniProt Q9ULW8) | enzyme activity |  | GDH-coupled | 0.2458 µM | 0.25 mM Ca2+ | 68.8 |
| CN(/N=C/c1ccccc1C(=O)O)c1nc(-c2ccccc2Cl)cs1 | MST1R (Homo sapiens, UniProt Q04912) | enzyme activity | inhibitor |  | 1 µM |  | -24 |
| O=C(CN1CN(c2ccccc2)C2(CCN(C(=O)c3cnc4[nH]ncc4c3)CC2)C1=O)NCC(F)(F)F | PIP5K1C (Homo sapiens, UniProt O60331) |  | inhibitor |  | concentration not given |  | < 50 |
| COc1ccc(F)cc1S(=O)(=O)Nc1cnc2c(c1)C(=O)NCCO2 | KATP potassium channel | radioligand binding |  |  | 10 µM |  | 9 |
| CS(C)(=O)=Nc1ccc(-c2ccc(-c3nc4cc(O[C@@H]5CO[C@H]6[C@@H]5OC[C@H]6O)[nH]c4cc3F)cc2)cc1 | MAP3K7 (Homo sapiens, UniProt O43318) | enzyme activity | inhibitor |  | 10 µM |  | 4 |
| CC(C)[C@H]1NC(=O)C[C@H]2/C=C/CCSSC[C@@H](NC1=O)C(=O)N[C@H](Cc1cccc3ccccc13)C(=O)NCC(=O)O2 | FGFR3 (Homo sapiens, UniProt P22607, K650M) | enzyme activity | inhibitor |  | 10 µM |  | 9.6 |
| C[C@H](NCc1ccc(-c2ccc(C(F)(F)F)cc2)cc1)C(N)=O | MAP2K2 (Homo sapiens, UniProt P36507) | cell-free assay |  | competition with immobilised ligand | 1 µM |  | 0 |
| CN(C)[C@H]1C[C@@]23CC[C@@]4(O2)C(=CC[C@]2(C)[C@@H](c5ccc6ccncc6c5)CC[C@H]24)C=C3[C@@H](O)[C@@H]1O | CDK6 (Homo sapiens, UniProt Q00534) | ATP probe labelling | inhibitor | KiNativ profiling | 0.1 µM |  | 6.2 |

Excerpt of the above:
| SMILES | target | read-out | action | method | concentration | added | inhibition [%] |
| --- | --- | --- | --- | --- | --- | --- | --- |
| O=C(CN1CN(c2ccccc2)C2(CCN(C(=O)c3cnc4[nH]ncc4c3)CC2)C1=O)NCC(F)(F)F | PIP5K1C (Homo sapiens, UniProt O60331) |  | inhibitor |  | concentration not given |  | < 50 |
